Published values of several laboratories.
Parts stem from different laboratories: compare values within a part only.

Sample 1
Target: Fragile X messenger ribonucleoprotein 1, C-terminal low-complexity region (Fmr1, Mus musculus, UniProt P35922)
Method: RNA Bind-n-Seq
Form: RNA
Sample: in vitro
Tested at: 200 nM
Notes: whole 134-nt RNA, ends assumed
Added: 150 mM LiCl
Relative to: input library
Direction: higher = stronger binding
All molecules: 7-deaza-guanosine replaces G
Sequence	log2 enrichment
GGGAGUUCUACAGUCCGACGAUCACCAUGCAGGUGGGCAUCUUUGGGAAGUGGGGCAAGGGGGGGAUAGGGAGGGGGGUAACACUUUGGGAACAGGUGGUACCAGGUCGUUUCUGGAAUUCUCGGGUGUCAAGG	1.71
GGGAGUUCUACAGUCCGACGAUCGUCCUGUGCUACACAUCGUAUGUACCGAAUCGGGGAAAAAGGGAAAAAGGAAAAAGGGGAAAGUAUUAUGUUACGCCGUUCGGAUCUGCAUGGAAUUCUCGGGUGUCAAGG	0.535
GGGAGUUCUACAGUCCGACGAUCUAACUUUAGAGGAGGAUCUGAUAGAUAUGGCAGUGGACGUGGAUUUGGGGAUGGCUAUAAUGGGUAUGGAGGAGGACCUGGAGGUGGCAAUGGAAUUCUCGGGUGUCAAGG	0.45
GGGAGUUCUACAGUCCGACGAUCUACCAUGGUGGAAGUUCCCGUUCUCGUAGCAGUAUUUUCCAUGCAGGAAAAAGCCAAGGACUACAUGAAAACAACAUACCUGACAAUGAAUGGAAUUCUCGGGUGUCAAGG	0.387
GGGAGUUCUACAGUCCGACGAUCAAGUCCUGUGCUACACAUCGUAUGUACCGAAUCGGCCCCGGCCCCGGGCCCCGGGGAAAGUAUUAUGUUACGCCGUUCGGAUCUGCACUUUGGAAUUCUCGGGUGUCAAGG	-1.79
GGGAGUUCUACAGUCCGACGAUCCUGUGCUACACAUCGUAUGUACCGAAUCGGGUUUUUUUGGGGUUUUUUUGGGGUUUUUUUGGAAAGUAUUAUGUUACGCCGUUCGGAUCUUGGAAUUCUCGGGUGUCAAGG	1.58
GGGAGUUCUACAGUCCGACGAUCUCCUCAAGUCCUGUGCUACACAUCGUAUGUACCGAAUCGGUGGGGUGGUGGGAAAGUAUUAUGUUACGCCGUUCGGAUCUGCACUUCCAGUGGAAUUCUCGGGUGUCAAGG	0.565

Sample 2
Target: Prothrombin, mature alpha-thrombin (F2, Homo sapiens, UniProt P00734)
Method: aptamer microarray, sandwich
Form: DNA with 2'F-ANA
Sample: in vitro
Tested at: 200 nM
Notes: whole 15-mer aptamer, many near background
Added: Cy3 exosite-II aptamer, 400 nM
Direction: higher = stronger binding
Sequence: GGTTGGTGTGGTTGG
Modification	mean fluorescence intensity
2'F-ANA at 1 2 3 11 14	71.3 a.u.
2'F-ANA at 1 6 7 15	195 a.u.
2'F-ANA at 4 7 11 14	96.9 a.u.
2'F-ANA at 2 3 6 11 14	374 a.u.
2'F-ANA at 4 5 7 8 15	78.6 a.u.
2'F-ANA at 1 2 4 5 6 7 8 9 10 13	49.8 a.u.
2'F-ANA at 1 2 5 6 8 9 11 12 13	77.5 a.u.
2'F-ANA at 4 6 7 8 9 10 12 13 15	113 a.u.
2'F-ANA at 2 4 8 9 11	327 a.u.

Sample 3
Target: Interferon regulatory factor 7, full length, phosphomimetic (IRF7, Homo sapiens, UniProt Q92985, residues 1-503, S101K/S471D/S472D/S475D/S476D/S477D/S483D/S484D/S487D)
Sequence of UniProt Q92985 (whole entry, unmodified, looked up): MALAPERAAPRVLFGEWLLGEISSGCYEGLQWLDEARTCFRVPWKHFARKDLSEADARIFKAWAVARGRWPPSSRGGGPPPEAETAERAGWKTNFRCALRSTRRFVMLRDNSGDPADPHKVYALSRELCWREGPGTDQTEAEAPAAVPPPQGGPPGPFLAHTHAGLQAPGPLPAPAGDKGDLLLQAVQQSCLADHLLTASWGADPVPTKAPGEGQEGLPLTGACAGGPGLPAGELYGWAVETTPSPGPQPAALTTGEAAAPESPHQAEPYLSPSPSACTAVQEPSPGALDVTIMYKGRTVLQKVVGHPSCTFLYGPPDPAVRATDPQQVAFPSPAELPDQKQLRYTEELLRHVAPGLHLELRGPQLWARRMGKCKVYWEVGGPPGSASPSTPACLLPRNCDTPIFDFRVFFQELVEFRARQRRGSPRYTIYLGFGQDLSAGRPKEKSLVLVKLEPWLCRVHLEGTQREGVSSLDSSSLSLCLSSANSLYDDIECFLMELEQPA
Method: protein-binding microarray
Form: double-stranded DNA, one strand shown
Sample: in vitro
Tested at: 250 nM
Notes: 60-bp whole probe
Added: salmon DNA 0.4 mg/ml
Relative to: random background probes
Direction: higher = stronger binding
All sequences stand within: GCCTAGCAC … GTCTTGATTCGCTTGACGCTGCTG
Sequence	log fluorescence
ATGGCAAAAAAAAAAGATTTGTGCTAG	-0.7 z-score
GACGGTTTCGGGTATCGGCACGTGCTA	6.95 z-score
TCAGGTTTCGACTATCGGTTAGTGCTA	5.65 z-score
TTAGGTTTCCTTTTCCTTTCGTGCTAG	6.83 z-score
GTCGGACTGGGTCTCGGGACGTGCTAG	-0.0186 z-score
GACGGTATCCTTCTGCTGACGTGCTAG	-0.241 z-score
CTGTGTTTCCTTGTACGTCGGTGCTAG	1.07 z-score
GACGATATCTGGTTTCGAGACGTGCTA	4.49 z-score
GACGGTTCCGGGACTGGGGACGTGCTA	0.443 z-score
GACGGTCTCGGTCTCAGGACGTGCTAG	0.659 z-score
TTTGAGCTCTGTCTGGGATGGTGCTAG	-0.645 z-score

Single results of other studies
Molecule	target	assay	test system	setting	scale	quantity	value
PhoQ, residues 284 288 289 292 302 303 TTSMTC	PhoP, residues 12 14 15 18 19 HEGLL (Escherichia coli, UniProt P23836)	Sort-seq, item: YFP reporter	E. coli	PhoQ-PhoP variant library, added: 10 µM Mg2+	relative to: high Mg2+ state, higher = stronger signaling	fold induction	4.45
